# Measured values pooled from the literature.
# Every numbered part comes from another study and shows a few of its results, in no order.

# Block 1
# Target: Fragile X messenger ribonucleoprotein 1, C-terminal low-complexity region (Fmr1, Mus musculus, UniProt P35922)
# Technique: RNA Bind-n-Seq
# Molecule type: RNA
# Sample: in vitro
# Concentration: 200 nM
# Setting: whole 134-nt RNA, ends assumed
# Added: 150 mM LiCl
# Baseline: input library
# Direction: higher = stronger binding
# Library: 7-deaza-guanosine replaces G
# Constant ends, left off below: GGGAGUUCUACAGUCCGACGAUC … UGGAAUUCUCGGGUGUCAAGG
Oligonucleotide,log2 enrichment
CUCAAGUCCUGUGCUACACAUCGUAUGUACCGAAUCGGGGUGGGUGGGGUGGGAAAGUAUUAUGUUACGCCGUUCGGAUCUGCACUUCCA,-0.777
UAACUUUAGAGGAGGCUCUGAUGGAUAUGGCAGUGGACGUGGAUUUGGGGAUGGCUAUAAUGGGUAUGGAGGAGGACCUGGAGGUGGCAA,-0.144
AAGUCCUGUGCUACACAUCGUAUGUACCGAAUCGGAGGAAAAAAAGGAAAAAAAGGAAAGUAUUAUGUUACGCCGUUCGGAUCUGCACUU,-1.02
UAACUUUAGAGGAGGAUCUGAUGGAUAUGGCAGUGGACGUGGAUUUGGGGAUGGCUAUAAUGGGUAUGGAGGAGGACCUGGAGGUGGCGA,0.534
UAUCUUAUCUACACAUGGGGGACUGAAGAGUUCGAGAGAUCCAAGAGGAAGAAUCCAGCUGCCUAUGAAAAUGACAAAUGAGCAACGCAU,-0.293
CCUGUGCUACACAUCGUAUGUACCGAAUCGGGGUUUUUUGGGUUUUUUGGGGUUUUUUGGGAAAGUAUUAUGUUACGCCGUUCGGAUCUG,-0.356
AAGUCCUGUGCUACACAUCGUAUGUACCGAAUCGGGGUUUGGGGAAAGGGGAGGGGAAAGUAUUAUGUUACGCCGUUCGGAUCUGCACUU,-0.0604
UCAAGUCCUGUGCUACACAUCGUAUGUACCGAAUCGGUUUGGAAAAAAAGGUGGAAAGUAUUAUGUUACGCCGUUCGGAUCUGCACUUCC,-1.15
UGGGAGGUGGAUUUUGUUUAUUUUUUUAGCUCAUUUCCAGGGGUGGGAAUUUUUUUUUAAUAUGUGUCAUGUAUAAAGUUGUUUUUGAAA,0.451

# Block 2
# Target: RNA binding protein fox-1 homolog 2, RRM domain, GST-SBP tag (RBFOX2, Homo sapiens, UniProt O43251-10, residues 100-194)
# Technique: RNA Bind-n-Seq
# Molecule type: RNA
# Sample: in vitro
# Concentration: 365 nM
# Setting: natural RNA segment, single round, ends assumed
# Baseline: no-protein control
# Direction: higher = stronger binding
# Constant ends, left off below: GGGAGUUCUACAGUCCGACGAUC … UGGAAUUCUCGGGUGCCAA
# Construct (chain): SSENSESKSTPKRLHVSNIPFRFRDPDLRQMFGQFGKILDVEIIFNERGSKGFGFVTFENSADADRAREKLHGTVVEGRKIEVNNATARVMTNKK
Oligonucleotide,RBNS enrichment (R)
CUCUGCCGCCACUGUUUUCAUUGUUGUGUUCUCGUUGUGAUUGUUAAGACUCACACUCCUGGCUCAGCAGUGGUUUUCCAGAAGGCCCAAAGAGCGGUGCCGGGCACCCC,0.24
GCUUUGUAAAUGUCUUAUUUGUGUAAUAAAUAAAGUUAAUGCGAGUAGAAGUGCCGGCACUUAAACCAGAAUGCCAUGGAAUUCCAUUUUUCUCUUGCUAAACCCUUGUC,1.2
AAAAUGUGGAUAGAUACUGUGAAGCUGCUCGCUCAGAAAUACAAGUUCUGGAACAUCUGAAUACAACAGACCCCAACAGUACUUGCCGCUGUGUCCAGAUGUUGGAAUGG,0.421
AGAUAUAUGCACACAGGGUGCAAGUUAAAAGCUACAGAGUGAAAGUUGGUUUGGAUCCUCUUCAUUUCAUUUGUUUAGCUUUUCUGUUAUUUUUCUCUACUUACAUGUAU,1.12
AAGCCCCCUCCUAUGAGGAUGAGCAAAAAUACUACUCUCUUCGCCCUGAGUUGCUUUCUGGAUCUGGGGCUUCAGGACUUGCUGCUUCAGUCAGCCUUUAUUAGCACCAA,0.347
UGCCUCCAUGUCUGUCACUUAUAAUUCAGGUUCUGCUGUUGGCUUCAGAACAUGAGCAGAAGAAUCGUUUUAUGCUAGUUAUUGCAUUCAUGGUUGAAACUCAACUUAGG,0.553

# Block 3
# Target: Sal-like protein 4, full length isoform B (SALL4, Homo sapiens, UniProt Q9UJQ4-2, residues 1-616)
# Technique: universal PBM
# Molecule type: double-stranded DNA, one strand shown
# Sample: in vitro
# Concentration: not given
# Setting: 8-mer, flanks averaged, mean of replicates
# Direction: higher = stronger binding
# Target sequence (chain): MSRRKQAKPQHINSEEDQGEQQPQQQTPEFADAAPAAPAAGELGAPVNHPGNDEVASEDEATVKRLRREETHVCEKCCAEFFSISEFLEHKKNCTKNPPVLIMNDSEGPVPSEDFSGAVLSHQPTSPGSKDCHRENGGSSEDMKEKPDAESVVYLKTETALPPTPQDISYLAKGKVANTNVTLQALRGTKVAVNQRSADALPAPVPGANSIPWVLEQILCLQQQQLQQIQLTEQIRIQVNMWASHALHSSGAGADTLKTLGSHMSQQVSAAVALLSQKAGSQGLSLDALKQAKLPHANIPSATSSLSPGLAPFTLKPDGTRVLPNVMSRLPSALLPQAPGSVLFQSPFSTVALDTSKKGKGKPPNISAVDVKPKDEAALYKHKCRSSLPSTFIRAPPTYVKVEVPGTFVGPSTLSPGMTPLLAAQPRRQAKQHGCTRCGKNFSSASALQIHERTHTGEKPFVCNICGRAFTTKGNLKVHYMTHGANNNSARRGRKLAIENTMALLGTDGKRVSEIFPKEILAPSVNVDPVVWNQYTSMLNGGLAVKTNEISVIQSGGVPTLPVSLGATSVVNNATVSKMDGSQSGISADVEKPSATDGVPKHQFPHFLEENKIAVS
Oligonucleotide,E-score
CAAGCAAC,0.00281
AAGGTGGT,0.0544
CACGCTAC,-0.075
CAACGACC,-0.168
AAATATGG,0.376
ATTCACCC,-0.0522
AAGTGCGG,-0.0999

# Mixed results
Substance,target,test,test system,conditions,scale,endpoint,value
"PhoQ, residues 284 288 289 292 302 303 ASSHFY","PhoP, residues 12 14 15 18 19 YHFSH (Escherichia coli, UniProt P23836)","Sort-seq, item: YFP reporter",E. coli,"PhoQ-PhoP variant library, added: 10 µM Mg2+","baseline: high Mg2+ state, higher = stronger signaling",fold induction,10.2

# For quick reference, copied from above (block 2):
Oligonucleotide,RBNS enrichment (R)
UGCCUCCAUGUCUGUCACUUAUAAUUCAGGUUCUGCUGUUGGCUUCAGAACAUGAGCAGAAGAAUCGUUUUAUGCUAGUUAUUGCAUUCAUGGUUGAAACUCAACUUAGG,0.553
AAGCCCCCUCCUAUGAGGAUGAGCAAAAAUACUACUCUCUUCGCCCUGAGUUGCUUUCUGGAUCUGGGGCUUCAGGACUUGCUGCUUCAGUCAGCCUUUAUUAGCACCAA,0.347
AAAAUGUGGAUAGAUACUGUGAAGCUGCUCGCUCAGAAAUACAAGUUCUGGAACAUCUGAAUACAACAGACCCCAACAGUACUUGCCGCUGUGUCCAGAUGUUGGAAUGG,0.421
AGAUAUAUGCACACAGGGUGCAAGUUAAAAGCUACAGAGUGAAAGUUGGUUUGGAUCCUCUUCAUUUCAUUUGUUUAGCUUUUCUGUUAUUUUUCUCUACUUACAUGUAU,1.12
